Assay results pooled from the literature.
A part holds a random share of what one study measured. Positions count from the first letter of the parent shown.

Study 1 — method: protein-binding microarray; molecule type: double-stranded DNA, one strand shown; matrix: in vitro; concentration: not given; reading: higher = stronger binding
Target: Transcriptional repressor CTCF (CTCF, Homo sapiens, UniProt P49711, residues 1-727, full length assumed)
Sequence of UniProt P49711 (whole entry, looked up): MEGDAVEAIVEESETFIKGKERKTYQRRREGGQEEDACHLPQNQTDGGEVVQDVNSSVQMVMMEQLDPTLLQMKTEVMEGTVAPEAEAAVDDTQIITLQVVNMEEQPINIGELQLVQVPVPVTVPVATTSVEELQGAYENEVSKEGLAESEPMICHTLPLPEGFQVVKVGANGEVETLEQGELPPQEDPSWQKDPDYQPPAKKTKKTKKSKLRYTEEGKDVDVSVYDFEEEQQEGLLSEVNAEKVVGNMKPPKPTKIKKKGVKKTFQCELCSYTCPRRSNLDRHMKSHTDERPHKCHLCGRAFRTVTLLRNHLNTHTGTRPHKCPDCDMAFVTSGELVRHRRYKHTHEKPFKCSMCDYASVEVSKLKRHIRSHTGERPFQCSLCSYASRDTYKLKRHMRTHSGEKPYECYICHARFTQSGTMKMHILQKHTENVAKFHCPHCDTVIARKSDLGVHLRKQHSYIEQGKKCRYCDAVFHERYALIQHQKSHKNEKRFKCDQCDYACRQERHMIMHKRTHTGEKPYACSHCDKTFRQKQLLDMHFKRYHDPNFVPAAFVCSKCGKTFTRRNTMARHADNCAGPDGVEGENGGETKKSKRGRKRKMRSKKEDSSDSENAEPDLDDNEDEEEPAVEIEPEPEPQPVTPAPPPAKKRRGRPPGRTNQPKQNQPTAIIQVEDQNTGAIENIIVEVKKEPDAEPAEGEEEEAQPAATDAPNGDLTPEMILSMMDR
Notes: k-mer, scored over probes, only values ≥0.25
With `TGTATAAA` the E-score was 0.257.
`ACAGAAAT` has an E-score of 0.273.
The E-score of `GCGCGTCA` is reported as 0.3.
The E-score of `GGTAACAA` is reported as 0.275.
For `TATGATAA`, the E-score was 0.361.
With `TGCATTAA` the E-score was 0.272.
With `AACTTACG` the E-score was 0.275.
With `ATTGCGCC` the E-score was 0.361.
`ATTGCATA` has an E-score of 0.31.
For `ATATACTA`, the E-score was 0.268.
`TACGAGTA` gave an E-score of 0.297.
`ATTGCGTA` has an E-score of 0.28.
`ATACCATA` gave an E-score of 0.329.
The E-score of `ATTAAGTA` is reported as 0.31.
`CCACCAGG` has an E-score of 0.405.
With `TATTTAAA` the E-score was 0.275.
`CAAAATGA` gave an E-score of 0.295.
For `AACATACG`, the E-score was 0.27.
For `ATGAAATC`, the E-score was 0.256.
With `AAAATATG` the E-score was 0.266.
`TACACAAA` has an E-score of 0.32.
`AAAGCGCT` has an E-score of 0.276.
`GCGCACCA` gave an E-score of 0.316.
`CCCCTATC` gave an E-score of 0.253.
`CAGTATAA` has an E-score of 0.298.

Study 2 — target: CCNF, cyclin fold, Cln2 fusion (human); method: yeast growth competition, sequencing; matrix: yeast; notes: strong parent motif; reference: not given; reading: higher = stronger binding
Parent: BRCA2 docking peptide (human); PSIKRNLLNEFDR; partner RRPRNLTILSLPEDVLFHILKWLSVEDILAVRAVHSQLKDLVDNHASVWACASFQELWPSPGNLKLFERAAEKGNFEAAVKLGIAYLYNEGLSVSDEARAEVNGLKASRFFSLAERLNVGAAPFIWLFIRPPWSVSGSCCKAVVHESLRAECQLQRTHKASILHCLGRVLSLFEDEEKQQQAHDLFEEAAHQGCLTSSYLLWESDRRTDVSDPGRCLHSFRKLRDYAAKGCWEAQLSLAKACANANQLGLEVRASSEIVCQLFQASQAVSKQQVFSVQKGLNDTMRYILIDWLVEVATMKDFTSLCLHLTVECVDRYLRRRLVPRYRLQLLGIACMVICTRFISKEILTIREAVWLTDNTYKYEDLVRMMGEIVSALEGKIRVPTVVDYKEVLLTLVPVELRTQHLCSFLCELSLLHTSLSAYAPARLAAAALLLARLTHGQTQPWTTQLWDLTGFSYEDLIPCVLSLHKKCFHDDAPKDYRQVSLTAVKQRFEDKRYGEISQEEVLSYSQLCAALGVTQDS
For `F11P`, “normalised enrichment score” read 0.227.
Under “normalised enrichment score”, `E10S` is recorded as 2.97.
Under “normalised enrichment score”, `K4P` is recorded as 0.368.
`F11W`: “normalised enrichment score” 0.769.
Under “normalised enrichment score”, `P1R` is recorded as 5.43.
`P1E`: “normalised enrichment score” 3.07.
Under “normalised enrichment score”, `L8K` is recorded as 1.02.
`L7K`: “normalised enrichment score” 0.369.
`L8Q`: “normalised enrichment score” 1.05.
`L7F`: “normalised enrichment score” 0.205.
For `R13S`, “normalised enrichment score” read 3.72.
For `D12G`, “normalised enrichment score” read 1.56.
Under “normalised enrichment score”, `R5S` is recorded as 1.4.
`E10H`: “normalised enrichment score” 1.9.
`N9R`: “normalised enrichment score” 3.96.
`E10T`: “normalised enrichment score” -0.0302.
`N6Q` — result for “normalised enrichment score”: 2.

Study 3 — method: RNA Bind-n-Seq; molecule type: RNA; matrix: in vitro; concentration: not given; reference: input RNA pool; reading: higher = stronger binding
Target: RING finger protein unkempt homolog, zinc fingers 1-6, GST-SBP tag (UNK, Homo sapiens, UniProt Q9C0B0, residues 30-357)
Notes: RNA with constant flanks, human-mouse chimeric sites, ends assumed
Constant ends, left off below: GGGAGUUCUACAGUCCGACGAUC … CAACAGAGGAUUGAGCAUCA
Target sequence (chain): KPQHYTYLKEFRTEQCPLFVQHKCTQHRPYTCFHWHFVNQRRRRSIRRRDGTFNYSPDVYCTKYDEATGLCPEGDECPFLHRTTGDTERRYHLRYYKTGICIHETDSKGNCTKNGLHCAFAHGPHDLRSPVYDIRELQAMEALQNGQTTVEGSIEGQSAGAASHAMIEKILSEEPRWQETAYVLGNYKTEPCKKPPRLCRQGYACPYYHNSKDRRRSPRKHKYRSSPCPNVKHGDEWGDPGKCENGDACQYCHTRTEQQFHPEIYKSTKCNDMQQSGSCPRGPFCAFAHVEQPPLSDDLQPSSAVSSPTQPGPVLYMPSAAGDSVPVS
The bound/input enrichment of `AAAGUGGACUAUGGUGAGUACAUGGAUAAAAACAAUGUGAGGCGACAAGCAACAACAAUCAUAGCUGAUAACAUUAUAUUUCUGAGUGACCAGACAAAAGAAAAGGCAUAGAACGGAUGA` is reported as 1.46 ratio.
`AAAGAACUUGCUGAUGAUGAAGAUGAGGAAGACAAUGAUGAUGUUGAACCCAUUUCUGAAUUUCGAUUUGUGCCUAGUGAUAAGUCAGCAUUGGAGGCGAUGUUCACAGCAAUGUGUGAG` has a bound/input enrichment of 0.433 ratio.
With `CGCUUGGAUGAGGCGGGUGUCACAGAUGAAGUGCUGGAUUCUGCCAUGCAAGCCUUCUUACUAGAAAUCAUUGUUAAACAUGGGGAGCCGGCACCUUAUUUAUGUAACAAAGAUCCGUUU` the bound/input enrichment was 0.193 ratio.
`GCAAAGGAUGAUGAGGCGGCAGCUGUUGCCCUUUCCUCUCUCGUUCAUGCUUUGGAUGAGUUAAACAUGGUGGCCAUAGUUCGAUAUGCUUAUGACAAAAGAUCUAAUCCUCAAGUUGGU` gave a bound/input enrichment of 0.824 ratio.
`GAUGAUAAUCACACAAACAAGUCACUGUUACAUGACCAGAGUUGUACUUCUUUUCCUGAUUAAUAUUCUCCCUGGAACCACUAGCCAAGGGGAAUCAAGACGACAAGAACCCGGGGACUU` has a bound/input enrichment of 0.194 ratio.
With `UAAAUUAGGGCUGCCGUUUUCUGUUUCGCCCUGAGCUGCGGAAAGCCAGAAGAUUUUAUCUAGCUUAUACAAGGCUGCUGGUGUUCCCUCUUUUUUUCCCUCUCUCUGUUUUUGGCUGCA` the bound/input enrichment was 0.706 ratio.
The bound/input enrichment of `AAUUUCCUGUCAUACUUUUUAGACAUUGCCAUAGGUAUUACAGAGCACCUGGCCACAUUCUAGGUUUGUGUUAUUUCUCAGCUAUGGGGGUAUGAUUAUGAGAACACUGCUUAACUAAUG` is reported as 1.73 ratio.
`UUUCUACUGCAGCAAACGAUGCUAAGAAUUAAGGAUCCUAAGAAGUCACUGGAUUUUUAUACGAGGGUUCUUGGACUGACCCUCCUGCAGAAGCUUGACUUCCCUGCUAUGAAGUUUUCG` gave a bound/input enrichment of 0.255 ratio.
The bound/input enrichment of `UUUCUACUGCAGCAGACGAUGCUAAGAAUUAAGGAUCCUAAGAAGUCCCUGGAUUUUUAUACGAGGGUUCUUGGACUGACCCUCCUGCAGAAGCUUGACUUCCCUGCUAUGAAGUUCUCG` is reported as 0.373 ratio.
`GCUCUUGGGAAUGUAAUCAGCGCCUUGGGGGACAAGAGCAAGAGAGCCACACAUGUCCCUUACAGAGACUCUAAGCUGACAAGACUCUUGCAGGAUUCCCUCGGGGGUAACAGCCAAACC` gave a bound/input enrichment of 0.097 ratio.
For `CAGUCCCCGUGUCCCAGUGCAGGACGAGAACAUGGACAACUCAAAGCGGACCCUCUAUUGUAGUUCUUGAUUCUCGAAAUGUGCUAUUAUUGUUUGUCUUUUUUUUUUUUUUUUUAAAGA`, the bound/input enrichment was 0.984 ratio.

Study 4 — method: universal PBM; molecule type: double-stranded DNA, one strand shown; matrix: in vitro; concentration: not given; reading: higher = stronger binding
Target: Sal-like protein 4, full length isoform B (SALL4, Homo sapiens, UniProt Q9UJQ4-2, residues 1-616)
Notes: 8-mer, flanks averaged, mean of replicates
For `CCACCTGC`, the E-score was -0.271.
With `ATCCCAGG` the E-score was -0.184.
`AGACACTG` has an E-score of -0.103.
The E-score of `ACAAGGGG` is reported as -0.225.
`AATGCAAA` gave an E-score of 0.287.
With `AAAATGCC` the E-score was 0.14.
`GTTTGAAA` gave an E-score of 0.173.
For `AGCTAATG`, the E-score was -0.0461.
The E-score of `GACTTCAA` is reported as 0.0779.
With `ATAAAGAC` the E-score was 0.233.
With `AGGAAATC` the E-score was -0.0274.
The E-score of `CTCCAATA` is reported as 0.207.
`AATTGAGC` gave an E-score of 0.0516.
`TCCTCTCA` has an E-score of 0.0207.
For `ACTAAGAA`, the E-score was -0.0139.
`ACATGGAC` has an E-score of 0.0201.
For `AACCGAGA`, the E-score was 0.0541.
`AGCGGGAG` has an E-score of -0.169.
For `GCACGGCC`, the E-score was -0.361.
`CAAACGGC` gave an E-score of -0.321.
The E-score of `ACGCGTAC` is reported as 0.0393.
`CGCAGCAC` gave an E-score of -0.235.

Study 5 — method: DHFR PCA, deep sequencing; matrix: yeast; together with: (+)-ABA 17 µM; reference: wild-type fitted maximum; reading: higher = stronger binding
Target: ABI1, truncated, D143A, DHFR fusion (Arabidopsis thaliana)
Notes: methotrexate growth selection, single substitutions
Parent: PYL1, truncated, DHFR fusion (Arabidopsis thaliana); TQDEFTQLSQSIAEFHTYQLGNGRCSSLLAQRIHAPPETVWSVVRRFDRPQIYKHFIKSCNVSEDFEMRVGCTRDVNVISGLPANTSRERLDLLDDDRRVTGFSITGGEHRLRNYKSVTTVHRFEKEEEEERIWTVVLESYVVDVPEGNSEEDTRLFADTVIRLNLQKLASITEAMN; partner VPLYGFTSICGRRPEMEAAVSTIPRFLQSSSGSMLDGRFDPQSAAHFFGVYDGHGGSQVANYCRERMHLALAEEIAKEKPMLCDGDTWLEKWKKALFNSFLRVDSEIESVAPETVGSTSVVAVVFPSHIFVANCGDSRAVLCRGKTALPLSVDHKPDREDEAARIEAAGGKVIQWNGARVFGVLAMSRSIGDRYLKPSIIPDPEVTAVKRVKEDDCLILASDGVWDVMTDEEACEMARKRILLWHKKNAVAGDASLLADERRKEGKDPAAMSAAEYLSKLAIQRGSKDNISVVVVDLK
`Q31I`: “relative binding score” 45.4%.
For `E38D`, “relative binding score” read 79.7%.
`E109W` — result for “relative binding score”: 14.5%.
For `T120Q`, “relative binding score” read 6.04%.
`S171L` — result for “relative binding score”: 81.1%.
`S59N`: “relative binding score” 82.4%.
For `G21E`, “relative binding score” read 86.8%.
`A35Y` — result for “relative binding score”: -5.76%.
Under “relative binding score”, `Q19W` is recorded as 55.2%.
`F103R`: “relative binding score” -13.5%.
`S87I`: “relative binding score” 9.09%.
`R123H` — result for “relative binding score”: 86.5%.

Study 6 — method: protein-binding microarray; molecule type: double-stranded DNA, one strand shown; matrix: in vitro; concentration: 250 nM; notes: 60-bp whole probe; together with: salmon DNA 0.4 mg/ml; reference: random background probes; reading: higher = stronger binding; constant ends, left off below: GCCTAGCAC … GTCTTGATTCGCTTGACGCTGCTG
Target: Interferon regulatory factor 5, full length, phosphomimetic (IRF5, Homo sapiens, UniProt Q13568-2, residues 1-514, K96S/S451D/S453D/S456D/S462D)
`GACGGACTGGTGTTTCGGGACGTGCTA` has a log fluorescence of 1.18 z-score.
With `TTCGATATCGGGTTTCGATTAGTGCTA` the log fluorescence was 8.25 z-score.
For `TTAGCTTTCGGGTTTCGGTTAGTGCTA`, the log fluorescence was 10.2 z-score.
The log fluorescence of `GACGAACTGAGTTTCGACACGTGCTAG` is reported as 5.41 z-score.
With `CTACACATCTCACTCTAATCGTGCTAG` the log fluorescence was 0.448 z-score.
`GGCGGTTTCGACACTGGGGACGTGCTA` gave a log fluorescence of 4.61 z-score.
The log fluorescence of `TCAACTCTTGCTTTTTAACTGTGCTAG` is reported as 0.55 z-score.
The log fluorescence of `GACGGTCTCCTTATCCTAACGTGCTAG` is reported as -0.0973 z-score.
`GACGGACTGGACTATCGGGTCGTGCTA` has a log fluorescence of 1.63 z-score.
`GACGATTTCCTACTGCTGACGTGCTAG` has a log fluorescence of 0.28 z-score.
For `GACGATATCAGTTTTGAGACGTGCTAG`, the log fluorescence was 1.29 z-score.
The log fluorescence of `TTAGATTTCGGTTCCGATTAGTGCTAG` is reported as 8.33 z-score.
With `GACGGTATCGGTATGGGGACGTGCTAG` the log fluorescence was 5.69 z-score.
`TCTGTTGCCCGTATCTAGGTGTGCTAG` gave a log fluorescence of 0.15 z-score.
`GACGGTTTCGGTTTCGTGACGTGCTAG` has a log fluorescence of 10.3 z-score.
`GTGTATATACTATATGCATGTGTGCTA` gave a log fluorescence of 0.482 z-score.

Other studies, line by line
For `PhoQ, residues 284 288 289 292 302 303 ASVMEA`, the fold induction was 21.3 (PhoP, residues 12 14 15 18 19 GQALL (Escherichia coli, UniProt P23836); Sort-seq, item: YFP reporter; E. coli; PhoQ-PhoP variant library, together with: 10 µM Mg2+; reference: high Mg2+ state, higher = stronger signaling).

Excerpt of the above (study 4):
For `ACTAAGAA`, the E-score was -0.0139.
`ACATGGAC` has an E-score of 0.0201.
For `AACCGAGA`, the E-score was 0.0541.
`AGCGGGAG` has an E-score of -0.169.
For `GCACGGCC`, the E-score was -0.361.
